Measured values gathered from unrelated publications.
Each line is one published result; not all experiments were run side by side. “And” joins repeats or separate records; there may be more than shown.
EIF2AK4 S808G: eIF-2-alpha kinase GCN2 (EIF2AK4, Homo sapiens, UniProt Q9P2K8, S808G)
EIF2AK4: eIF-2-alpha kinase GCN2 (EIF2AK4, Homo sapiens, UniProt Q9P2K8)
EIF2AK4 S808G C-terminal kinase domain: eIF-2-alpha kinase GCN2, C-terminal kinase domain (EIF2AK4, Homo sapiens, UniProt Q9P2K8, S808G)

| SMILES | target | test | test system | conditions | scale | endpoint | value |
| --- | --- | --- | --- | --- | --- | --- | --- |
| CNC1C[S+]2CC[S+]3CC[S+](C1)[Ru-4]321([N]=C=S)[n]2c3ccc(OC)cc3c3c4c(c5cc(F)c[n+]1c5c32)C(=O)NC4=O (stereo not drawn) | EIF2AK4 S808G | KinomeScan | – | 0.1 µM | relative to: untreated | remaining binding | 91% |
| CCn1cc(C(=O)O)c(=O)c2c(N)c(F)c(NC3CCCCC3)cc21 | EIF2AK4 | kinase activity | – | 0.1 µM, added: ATP at Km | – | inhibition | 14.6% |
| N[C@H]1CC[C@H](Nc2nccc(-c3cccnc3Oc3ccc(NC(=O)NC4CC4)c4ccccc34)n2)CC1 | EIF2AK4 | kinobead competition pulldown | HEK293/HCT116 lysate mixture | 10 µM, 1 h, 4 °C | lower = stronger competition | log2 LFQ intensity | 19.7 and 19.4 |
| COc1c(Cl)cccc1Nc1c(-c2ccncc2C#C[C@@]2(C)CCCN2C(=O)/C=C/CN(C)C)[nH]c2c1C(=O)NCC2 | EIF2AK4 S808G | binding, competition with immobilised ligand | – | 3 µM | – | remaining binding | 95% |
| CCN1CCN(Cc2ccc(NC(=O)c3ccc(C)c(NC(=O)c4cncc(-c5cccs5)c4)c3)cc2C(F)(F)F)CC1 | EIF2AK4 S808G C-terminal kinase domain | binding, competition with immobilised ligand | – | 1 µM | – | remaining binding | 5.8% |
| CCN1CCN(Cc2ccc(C(=O)Nc3ccc(C)c(NCc4cnc5[nH]ccc5c4OC)c3)cc2C(F)(F)F)CC1 | EIF2AK4 S808G C-terminal kinase domain | binding, competition with immobilised ligand | – | 1 µM | – | remaining binding | 2.8% |
| Cc1cnc2nc1Nc1cccc(c1)COC/C=C/COCc1cc(ccc1OCCN1CCOCC1)N2 | EIF2AK4 S808G | binding | – | 0.1 µM | – | remaining binding | 10% |
| Nc1ncc2c(n1)-c1c([nH]c3ccc(C4=CCOCC4)cc13)CCC2 | EIF2AK4 S808G C-terminal kinase domain | binding, competition with immobilised ligand | – | 1 µM | – | remaining binding | 78% |
| C=CC(=O)N1CCc2ccc(-n3c(=O)ccc4cnc5ccc(-c6cnn(C)c6)cc5c43)cc21 | EIF2AK4 S808G | KINOMEscan | – | 1 µM | relative to: DMSO control | remaining binding | 96% |
| Cc1nc2c(F)cc(-c3nc(Nc4ccc(CNC(=O)CCCCCCC(=O)NO)cc4)ncc3F)cc2n1C(C)C | EIF2AK4 | enzyme activity, inhibitor | – | 1 µM | – | inhibition | 72% |
| CNC(=O)C[C@H](Cc1ccc(C#N)cc1)NC(=O)c1cc(-c2ccc(CN[C@H](C)c3ccc(C)cc3)o2)ccc1Cl | EIF2AK4 | enzyme activity, inhibitor | – | 1 µM | – | activity vs control | 102% |
| CNC(=O)C1CCN(c2cc(C)c(F)cc2NC(=O)c2ccc(-c3cc(O)ccc3C)c(C)c2)CC1 | EIF2AK4 S808G C-terminal kinase domain | binding, competition with immobilised ligand | – | 1 µM | – | remaining binding | 75% |
| CN1CC[C@@H](COc2cnc(C#N)cc2-c2ccn3nc(NC(=O)C4CC4)cc3c2)C1 | EIF2AK4 | enzyme activity, inhibitor | – | 1 µM | – | inhibition | 21% |
| Cc1ccc(-c2c(/C=C(\C#N)C(=O)NC(C)C)n(CCCO)c3ncnc(N)c23)cc1 | EIF2AK4 S808G | binding, competition with immobilised ligand | – | 1 µM | – | remaining binding | 90% |
| O=C(Cc1ccc(OCc2ccccc2)cc1)NC1(C(=O)O)CCN(C(=O)c2ccc(-c3cccc(Cl)c3)cc2)CC1 | EIF2AK4 | enzyme activity, inhibitor | – | 10 µM | – | activity vs control | 101% |
| CC(C)=CC1OC(C)(C)C2C=C3C(=O)C(Cl)=CC(O)C3C3C(O)C4OC4C(=O)C132 (stereo not drawn) | EIF2AK4 S808G C-terminal kinase domain | cell-free assay, competition with immobilised ligand | – | 10 µM | – | remaining binding | 90% |
| Cc1cc(NC(=O)[C@H](O)c2cc(F)cc(F)c2)ccc1-c1cnc(N)c(C(=O)NC(C)C)c1 | EIF2AK4 S808G C-terminal kinase domain | binding, competition with immobilised ligand | – | 1 µM | – | remaining binding | 90% |
| C=CC(=O)N1CCCC(n2c(=O)c3ncccc3n(Cc3ccc(Oc4ccccc4)cc3)c2=O)C1 (stereo not drawn) | EIF2AK4 S808G | binding, competition with immobilised ligand | – | 1 µM | – | remaining binding | 100% |

For quick reference, copied from above:
| SMILES | target | test | test system | conditions | scale | endpoint | value |
| --- | --- | --- | --- | --- | --- | --- | --- |
| Nc1ncc2c(n1)-c1c([nH]c3ccc(C4=CCOCC4)cc13)CCC2 | EIF2AK4 S808G C-terminal kinase domain | binding, competition with immobilised ligand | – | 1 µM | – | remaining binding | 78% |
